Experimental data pooled from the literature.
Protocols differ between the studies behind these lines. “And” joins repeats or separate records; there may be more than shown. ± marks the error that the study gave.
IDE: Insulin-degrading enzyme (IDE, Homo sapiens, UniProt P14735)

CCn1cc(-c2cc(Cn3ccoc3=N)cc3c2CCN([C@@H](C)c2cc(OC)ccn2)C3=O)c(C(F)(F)F)n1 has an EC50 of 17.1 nM (SU-DHL-5; cell growth, inhibitor; 120 h).
CC[S+]([O-])c1nc(-c2ccccc2)cc(C(F)(F)F)n1 (centres unmarked): “cells with nuclear RelA” 77.3% and 55.8% (HeLa Kyoto; RelA nuclear import, high content imaging; 5.01 µM, 3 h, together with: 1 µM PMA, 60 min).
Under plasma concentration, CC(C)[C@H](NC(=O)[C@H](Cc1ccc(O)cc1)NC(=O)[C@H](Cc1ccc(O)cc1)NC(=O)[C@@H]1CCCN1C(=O)[C@H](CCC(=O)O)NC(=O)[C@H](CCC(=O)O)NC(=O)[C@H](Cc1c[nH]c2ccccc12)NC(=O)[C@@H]1CCCN1C(=O)[C@@H](NC(=O)[C@H](CCC(N)=O)NC(=O)c1ccc2c(c1)C(=O)OC21c2ccc(O)cc2Oc2cc(O)ccc21)C(C)C)C(=O)N[C@H](C(=O)N[C@@H](CCCCN)C(=O)N[C@@H](CCCCN)C(=O)N[C@@H](CO)C(=O)N[C@@H](CO)C(=O)NCC(=O)NCC(N)=O)C(C)C is recorded as “not detected” (human, plasma; intravenous infusion, 500 mg).
For CC1(C)CC[C@]2(C(=O)O)CC[C@]3(C)C(=CC[C@@H]4[C@@]5(C)C[C@@H](O)[C@H](OC(=O)/C=C/c6ccc(O)cc6)C(C)(C)[C@@H]5CC[C@]43C)[C@@H]2C1 (relative stereo), NICD production read “no effect” (N2a expressing NotchΔE-myc; gamma-secretase Notch cleavage, Western blot; concentration not given, 24 h).
The viability of Nc1ncnc2c1ncn2[C@@H]1O[C@H](CSCC[C@H](N)C(=O)O)[C@@H](O)[C@H]1O is reported as 103% (HBL-1; 0.5 µM, 120 h).
With Cc1cc(O)c(-c2ccc(Sc3ccc(Cl)cc3)cc2)c(C)n1 the IC50 was 632 ± 89 nM (Plasmodium yoelii; 17XL; 384-well).
For COC1=CC(c2cc3ccccc3[nH]2)=N/C1=C\c1[nH]c(C)cc1C, the inhibition was 94.1% (BT-12; cell viability, MTT; 10 µM, 72 h).
For CCOC(=O)CCNc1cc(N2CCc3ccccc3CC2)nc(-c2ccccn2)n1, the viability was 111% (HBL-1; 0.5 µM, 120 h).
NC(=O)NOCCCCCCCCCCCC[P+](c1ccccc1)(c1ccccc1)c1ccccc1.O=C([O-])C(F)(F)F — result for “concentration at maximal effect”: 10 µM (mouse CD4 T cells, reporter; IFNγ-YFP expression, flow cytometry; 144 h).
With COc1cc(/C=C/C(=O)N2CCC=CC2=O)cc(OC)c1OC the mRNA level was 119 ± 5.8% (MDA-MB-468; quantitative RT-PCR, refers to: GSS; 30 µM, 8 h; relative to: untreated cells).
With Cc1ccccc1S(=O)(=O)N1CCCCN2[C@H](CO)[C@@H](c3ccc(-c4ccc5c(c4)OCO5)cc3)[C@@H]2C1 the EC50 was 2900 nM (IDE; enzyme activity, inhibitor, fluorescence kinetic; together with: Mca-RPPGFSAFK(Dnp)-OH substrate).
O=C(C[C@@H](C(F)F)n1ccc(F)n1)N1CCC(O)(Cn2cnc3c(cnn3-c3ccc(F)cc3)c2=O)CC1: “cells in G1 phase” 65.8% and 71.1% and 78.2% (CHP-212 parental (wild-type USP7); PI flow cytometry; 0.3 µM, 24 h).
Cn1cc(-c2ccc(-c3cncc(Cl)c3N3CCC4(CCNC4=O)CC3)cc2)cn1: “log2 fold change” 3.96 (COLO 205; gene expression, microarray, refers to: S100P mRNA; concentration not given, 6 h; relative to: untreated cells).
With N#C/C(=C(/N)Sc1ccc(N)cc1)c1ccccc1C(F)(F)F the inhibition was 15% (HeLa expressing Ub(G76V)-GFP; Ub(G76V)-GFP degradation, cycloheximide chase; 12 µM).
For CC/C(=N\NC(=O)NCc1cccc(O)c1)c1ccc(O)c(C)c1O, the log ratio was -3.72 (SK-OV-3; gene expression, microarray, refers to: ENPP2; 10 µM, 24 h; relative to: DMSO).
Cc1cc(Nc2ncc(Cl)c(Nc3ccccc3S(=O)(=O)C(C)C)n2)c(OC(C)C)cc1C1CCNCC1: “log2 fold change” -2.1 (CLB-GE; phosphoproteomics LC-MS/MS, refers to: GNAS phosphorylation; 200 nM, 60 min; relative to: untreated).
With CN(C)c1ccc(C(=O)NCCCCCC(=O)NO)cc1 the viability was 134% (HBL-1; 0.5 µM, 120 h).
Under “log2 fold change”, CCC/N=C1\S/C(=C\c2ccc(OC[C@H](O)CO)c(Cl)c2)C(=O)N1c1ccccc1C is recorded as 0.304 (human primary astrocytes; single-cell RNA-seq, refers to: SERPINE1 mRNA; concentration not given, 48 h, together with: cytokine stimulation; relative to: cytokine alone).
For COC(=O)/C=C/C(=O)N(O)CCCCNCc1ccc(COC(=O)Nc2cccc3ccccc23)cc1, the viability was 113% (HBL-1; 1 µM, 120 h).
The EC50 of CCCn1nccc1S(=O)(=O)N1C/C=C\CN2[C@H](CO)[C@@H](c3ccc(-c4cccc(C)c4C)cc3)[C@@H]2C1 is reported as 18 nM (IDE; enzyme activity, inhibitor, fluorescence kinetic; together with: Mca-RPPGFSAFK(Dnp)-OH substrate).
The viability of O=C(Nc1ccc2c(O)cc(S(=O)(=O)O)cc2c1)Nc1ccc2c(O)cc(S(=O)(=O)O)cc2c1 is reported as 119% (HBL-1; 0.1 µM, 120 h).
With O=C(/C=C/C=C/C=C/C1CCCCC1)NC1=C[C@@](O)(/C=C/C=C/C=C/C(=O)NC2=C(O)CCC2=O)[C@@H]2O[C@@H]2C1=O the GI50 was 16500 nM (LK-2; cell growth, CellTiter-Glo; 78 h).
For C=CC(=O)N1CCCN(C(=O)c2cc(Sc3cnc(NC(=O)C4CC4)s3)c(C)cc2OC)C[C@H]1C, cytokine production read “inhibited” (human naive CD4 T cells; IFNγ or IL-4, intracellular cytokine staining; 10 µM).
For O=C(O)C[C@H](O)C[C@H](O)/C=C/c1c(C2CC2)nc2ccccc2c1-c1ccc(F)cc1, the inhibition was 93.5% (BT-12; cell viability, MTT; 10 µM, 72 h).
The viability of O=C(/C=C/c1ccc(CN(CCO)CCc2c[nH]c3ccccc23)cc1)NO is reported as 17.3% (HBL-1; 0.1 µM, 120 h).
The IC50 of CCCCCCc1c(C)nc2cc(OC)ccc2c1O is reported as 158 ± 19 nM (Plasmodium yoelii; 17XL; 384-well).
With CN(C)CCCn1cc(C2=C(c3c[nH]c4ccccc34)C(=O)NC2=O)c2ccccc21 the inhibition was 55% (HeLa expressing Ub(G76V)-GFP; Ub(G76V)-GFP degradation, inhibitor, cycloheximide chase; 12 µM).
For CCCC(=O)O, the viability was 119% (HBL-1; 0.1 µM, 120 h).
The EC50 of COc1cnc2cccc(N3CCc4c(cc(Cn5ccnc5C)cc4-c4cn(C)nc4C(F)(F)F)C3=O)c2c1 is reported as > 30000 nM (G-402; cell growth, inhibitor; 120 h).

Excerpt of the above:
CCn1cc(-c2cc(Cn3ccoc3=N)cc3c2CCN([C@@H](C)c2cc(OC)ccn2)C3=O)c(C(F)(F)F)n1 has an EC50 of 17.1 nM (SU-DHL-5; cell growth, inhibitor; 120 h).
CC[S+]([O-])c1nc(-c2ccccc2)cc(C(F)(F)F)n1 (centres unmarked): “cells with nuclear RelA” 77.3% and 55.8% (HeLa Kyoto; RelA nuclear import, high content imaging; 5.01 µM, 3 h, together with: 1 µM PMA, 60 min).
Under plasma concentration, CC(C)[C@H](NC(=O)[C@H](Cc1ccc(O)cc1)NC(=O)[C@H](Cc1ccc(O)cc1)NC(=O)[C@@H]1CCCN1C(=O)[C@H](CCC(=O)O)NC(=O)[C@H](CCC(=O)O)NC(=O)[C@H](Cc1c[nH]c2ccccc12)NC(=O)[C@@H]1CCCN1C(=O)[C@@H](NC(=O)[C@H](CCC(N)=O)NC(=O)c1ccc2c(c1)C(=O)OC21c2ccc(O)cc2Oc2cc(O)ccc21)C(C)C)C(=O)N[C@H](C(=O)N[C@@H](CCCCN)C(=O)N[C@@H](CCCCN)C(=O)N[C@@H](CO)C(=O)N[C@@H](CO)C(=O)NCC(=O)NCC(N)=O)C(C)C is recorded as “not detected” (human, plasma; intravenous infusion, 500 mg).
For CC1(C)CC[C@]2(C(=O)O)CC[C@]3(C)C(=CC[C@@H]4[C@@]5(C)C[C@@H](O)[C@H](OC(=O)/C=C/c6ccc(O)cc6)C(C)(C)[C@@H]5CC[C@]43C)[C@@H]2C1 (relative stereo), NICD production read “no effect” (N2a expressing NotchΔE-myc; gamma-secretase Notch cleavage, Western blot; concentration not given, 24 h).
